Published values gathered from unrelated publications.
Values joined by “and” are separate records of one study, mostly repeats; a detail may differ. ± gives the spread as reported.

For Cc1ncsc1-c1ccc(C(C)NC(=O)C2CC(O)CN2C(=O)C(NC(=O)CCCCCCCCCCN2CCCC(Nc3ncc(Cl)c(Nc4ccccc4S(=O)(=O)C(C)C)n3)C2)C(C)(C)C)cc1 (stereo not shown), “log2 fold change” read -1.28 (22Rv1; RNA-seq, measured: LRIG2 mRNA; concentration not given; reference: DMSO).
With CC(C)c1ccc(N(C)c2ccc3c(c2)OCC[C@H]3CNc2cnccc2C(=O)O)cc1 the IC50 was at least 10 µM (RCM-1; cell growth or viability, ATP luminescence; 7 days).
For Cn1ncc2cc(-c3cncc(Cl)c3N3CCC4(CCNC4=O)CC3)ccc21, “log2 fold change” read -2.57 (LS174T; gene expression, microarray, measured: TIPARP mRNA; concentration not given, 24 h; reference: untreated cells).
For C[n+]1cccc2cc(/C=N/NC(=O)C(=O)N/N=C/c3ccc4c(ccc[n+]4C)c3)ccc21, the ΔTm was 0.6 ± 0.3 °C (hp2 hairpin duplex DNA; FRET melting; 1 µM, added: ds26 10 µM).
COCCn1cc(COc2cccc(Cc3cnc(NC(=O)CSc4nc(C)cc(C)n4)s3)c2)nn1 gave an inhibition of 27.4 ± 1.9% (PC-3M-luc; cell viability, MTS; 10 µM).
O=C(N/N=C/c1ccc(C[n+]2ccccc2)cc1)c1cccc(C(=O)N/N=C/c2ccc(C[n+]3ccccc3)cc2)c1 gave a ΔTm of -0.2 ± 0.2 °C (hp2 hairpin duplex DNA; FRET melting; 1 µM, added: ds26 10 µM).
CC(C)(C)c1cc(-c2ccc3cc4ccccc4nc3n2)nc(-c2ccc3cc4ccccc4nc3n2)c1.[Cl-].[Cl-].[Ru+2].c1ccc2cc3nc4c5cccnc5c5ncccc5c4nc3cc2c1 has an EC50 of 24.3 µM (A-375; resazurin; added: light 633 nm, 20 mW, 100 J/cm2).
The necrotic cells of Cc1cc(Cl)cc(-c2ccnc3cc(CN4C(=O)C5C(C4=O)C5(C)C)sc23)c1C[C@@H]1CNCCO1 (stereo partly shown) is reported as 2.04% and 1.98% and 3.09% (CHP-212 resistant; annexin V/PI flow cytometry; 0.3 µM, 48 h).
For C1=[N+]2CCCC[N+]3=Cc4ccc5[n]4[Au-]23[n]2c1ccc2-c1nc2ccccc2nc1-5.F[P-](F)(F)(F)(F)F, the TGI was 4.64 -log M (COLO 205; NCI60 five-dose screen).
The phototoxicity index of CC(C)(C)c1cc(-c2ccc3cccnc3n2)nc(-c2ccc3cccnc3n2)c1.[Cl-].[Cl-].[Ru+2].c1cnc2c(c1)ccc1cccnc12 is reported as 1 (A-375; resazurin; added: light 733 nm, 100 J/cm2; reference: dark EC50 over light EC50).
C=Cc1c(C)c2cc3nc(c(CC(=O)[O-])c4[n-]c(cc5nc(cc1[n-]2)C(C)=C5CC)c(C)c4C(=O)[O-])C(CCC(=O)[O-])C3C.[Cu+2].[Na+].[Na+].[Na+] (stereo not shown): “cell growth and viability” “decreased” (mouse breast cancer 4 T1 cells; IncuCyte; 5 to 50 µM, up to 120 h).
With C=CC(=O)N1CCCC(n2c(=O)c3ncccc3n(Cc3ccc(Oc4ccccc4)cc3)c2=O)C1 (stereo not shown) the IC50 was 7.5 µM (Ri-1; cell growth or viability, MTT; 72 h).
COC(=O)[C@@]1(C)C=C(C(=O)Nc2cccc(C(=O)Nc3ccc(Nc4nccc(-c5cccnc5)n4)c(C)c3)c2)C(=O)CC1 has a reporter activity of 0.0506 (AP1 reporter HEK293; AP1 reporter gene, inhibitor; 10 µM, 6 h, compound kept in medium, unit not given, added: PMA; reference: PMA alone).
For Cc1nc2c(F)cc(-c3nc(Nc4ccc(CNC(=O)CCCC(=O)NO)cc4)ncc3F)cc2n1C(C)C, the inhibition was 58.4% (4T1; cell growth or viability, CCK-8; 0.3 µM, 48 h).
[177Lu+3].[Cl-].[Cl-].[Cl-] has a dead cells of 20.8% (4T1; flow cytometry; 0.4 Bq/cell, 24 h).
CN1CCCNC(=O)c2cccc(c2)C(=O)NCCCN(C)CCCNc2cccc3c2C(=O)c2cccc(c2C3=O)NCCC1 — result for “log2 fold change”: -0.596 (SAS; RNA-Seq, measured: C8orf33 mRNA; 1 µM, 6 h; reference: untreated cells).
CSC(=S)N/N=C(\C)c1ccc(Nc2nnc(-c3ccc(Cl)cc3)c3ccccc23)cc1 has a cell death of 93.3% (HepG2; cell growth or viability, MTT; 0.625 µM).
Cc1cc(/C=C/c2ccc(O)c(O)c2)[nH]n1 — result for “cells in G2/M phase”: 40.8% (A549; PI staining flow cytometry; 50 µM, 48 h).
For CC(=O)OC[C@H]1O[C@@H](n2cc(CSc3nc4ccccc4n3Cc3cn([C@@H]4O[C@H](COC(C)=O)[C@@H](OC(C)=O)C(OC(C)=O)[C@H]4OC(C)=O)nn3)nn2)[C@H](OC(C)=O)C(OC(C)=O)[C@@H]1OC(C)=O (stereo in doubt), the cytotoxicity was 82.2% (MDA-MB-231; MTT; 15.6 ppm).
With COc1ccccc1-c1ccncc1C(=O)Nc1nnc(OCc2ccc(Cl)cc2)s1 the colony survival was 62% (MDA-MB-436 (BRCA1 mutant); colony formation; 0.375 µM; reference: untreated control).
For O=C(COC(=O)c1ccccc1Nc1cccc(C(F)(F)F)c1)Nc1cccc(C(F)(F)F)c1, “mTOR protein level” read 0.291 (RAW264.7; Western blot; concentration not given, 72 h, unit not given, added: LPS; reference: control).
O=C1CC[C@H](N2Cc3cc(-c4ccn5ncc(Cl)c5n4)ccc3C2=O)C(=O)N1 — result for “log2 fold change”: 0.0115 (MOLM-13; protein level, TMT proteomics, measured: AAGAB; 1 µM, 6 h; reference: DMSO).
The metabolite level of COC(=O)c1cc(NC2=NC(=O)C(=Cc3ccc(C)cc3)S2)ccc1OC(C)=O is reported as -0.51 fold change (MCF7; GC-MS, measured: L-Leucine; 1 µM; reference: DMSO).
For [Cl-].[Cl-].[Ru+2].c1cc(-c2ccc3cccnc3n2)nc(-c2ccc3cccnc3n2)c1.c1ccc2cc3nc4c5cccnc5c5ncccc5c4nc3cc2c1, the phototoxicity index was 3 (A-375; resazurin; added: light 733 nm, 100 J/cm2; reference: dark EC50 over light EC50).
CCN(C(=O)c1cc(F)ccc1Oc1nncnc1N1CCC2(C1)CN([C@H](CCCN(C)CCOC)C(C)C)C2)C(C)C has a GI50 of over 10 µM (JAR; cell growth or viability; 7 days).
CCN(CC)CC(=O)Nc1cccc(-n2cc(-c3ccc4ccc(-c5cn(-c6cccc(NC(=O)CN(CC)CC)c6)nn5)cc4c3)nn2)c1 has a fold regulation of 1.06 (RCC4; PCR angiogenesis array, measured: PF4; 5 x IC50, 6 h, normoxia; reference: untreated).
With CNS(=O)(=O)Nc1nccc(Cc2c(C)c3ccc(Oc4ncccc4F)cc3oc2=O)c1F the IC50 was over 1 µM (Hs 695T; cell viability; 7 days).
CN(C)c1ccc(-n2cc(COC(=O)[C@]3(C)C=C(C(=O)OC(C)(C)C)C(=O)CC3)nn2)cc1: “luminescence relative to PMA” 0.761 (AP-1 reporter HEK293; AP-1 reporter gene, luciferase reporter; 1 µM, 6 h, added: PMA 6 ng/mL; reference: PMA alone).
CCCCCCCCCCCC(=O)N[C@@H](CO)C[C@@H](O)c1cccc(CCCCCC)c1 gave a lactosylceramide level of 5500 pmol/sample and 5250 pmol/sample and 7000 pmol/sample (HeLa; CERT activity, HPLC-MS/MS lipidomics, measured: lactosylceramide 24:1; 1 µM, 24 h, not cell-number normalised).
CO[C@@H]1[C@@H](OC(N)=O)[C@@H](O)[C@H](Oc2ccc3c(O)c(NC(=O)c4ccc(O)c(CC=C(C)C)c4)c(=O)oc3c2C)OC1(C)C gave a colony count of 50 (DLD-1 parental; 100 µM, replicate 1).
O=C(Nc1ccc(Sc2ccc3c(/C=C/c4ccccn4)n[nH]c3c2)cc1)c1ccco1 has a GI50 of 2.7 µM (Ba/F3 TEL-VEGFR1; cell growth, CCK-8).

For quick reference, copied from above:
CN(C)c1ccc(-n2cc(COC(=O)[C@]3(C)C=C(C(=O)OC(C)(C)C)C(=O)CC3)nn2)cc1: “luminescence relative to PMA” 0.761 (AP-1 reporter HEK293; AP-1 reporter gene, luciferase reporter; 1 µM, 6 h, added: PMA 6 ng/mL; reference: PMA alone).
CCCCCCCCCCCC(=O)N[C@@H](CO)C[C@@H](O)c1cccc(CCCCCC)c1 gave a lactosylceramide level of 5500 pmol/sample and 5250 pmol/sample and 7000 pmol/sample (HeLa; CERT activity, HPLC-MS/MS lipidomics, measured: lactosylceramide 24:1; 1 µM, 24 h, not cell-number normalised).
CO[C@@H]1[C@@H](OC(N)=O)[C@@H](O)[C@H](Oc2ccc3c(O)c(NC(=O)c4ccc(O)c(CC=C(C)C)c4)c(=O)oc3c2C)OC1(C)C gave a colony count of 50 (DLD-1 parental; 100 µM, replicate 1).
